# Published values pooled from the literature.
# Lines come from different studies, so protocols differ. Values joined by “and” are separate records of one study, mostly repeats; a detail may differ. Numbers after ± are the reported error.
Compound,test,system,conditions,Tmax
CC(C)[C@H](N)C(=O)NCCCS(=O)(=O)O,median,"human, plasma","oral, 340 mg once daily days 8-14, day 14, fasted, capsule",0.5 h
C[C@H](Oc1ccc(Br)cc1-c1ccon1)C(=O)O,"LC-MS/MS, non-compartmental","human, plasma","400 mg once daily, day 10, multiple ascending dose, median",2.5 h
O=c1ccn([C@@H]2O[C@H](CO)[C@@H](O)C2(F)F)c(=O)[nH]1,,"human, plasma","intravenous, dose not given, cycle 1, median",0.5 to 1 h
CCCCCCCOc1ccc(CCC(N)(CO)CO)cc1C(F)(F)F.Cl,,"healthy human males, plasma","oral, 0.25 mg, day 1, median",12 h
C#C[C@]1(COP(=O)(O)OP(=O)(O)O)O[C@@H](n2cnc3c(N)nc(F)nc32)C[C@@H]1O,measured: islatravir triphosphate,"human, PBMC","oral, 15 mg single dose",24 h
CC1=C(c2cccc(O)c2)[C@H](c2ccc(OCCN3CC(CF)C3)cc2)Oc2ccc(O)cc21,,human,"600 mg once daily, cycle 2 day 1, steady state, median",1.5 h
Cc1cc(C)c(CNC(=O)c2cc(Cl)c3c(c2C)O[C@@](C)([C@H]2CC[C@H](N(C)C)CC2)O3)c(=O)[nH]1,median,"healthy male humans, plasma","oral, 25 mg, day 11, together with: itraconazole",3 h
N[C@](CO)(CCc1ccc(Sc2cccc(OCc3ccccc3)c2)cc1Cl)COP(=O)(O)O,,"human fasted, blood","3 mg MOC, MOC given alone",12 h
COc1cc([C@@H]2Oc3cc([C@H]4Oc5cc(O)cc(O)c5C(=O)[C@@H]4O)ccc3O[C@H]2CO)ccc1O,,"OATP1B1/1B3 humanized mice, plasma","oral gavage, 500 mg/kg silymarin, median",0.25 h
CC(F)(F)c1cc(F)ccc1-c1sc2cc(O)ccc2c1Oc1ccc(/C=C/C(=O)O)cc1,,"human patients, plasma","oral, once daily, range of medians, preliminary",2 to 3 h
Cn1ncnc1[C@H]1c2n[nH]c(=O)c3cc(F)cc(c23)N[C@@H]1c1ccc(F)cc1,,"human patients, plasma","oral, 400 µg/m2 twice daily, day 1, monotherapy, dose level DL2, median",2 h
COc1ccc([C@@H](O)c2cc(-c3ncnc4cc(N5CCOCC5)ccc34)c(F)cc2Cl)nn1,,"human, plasma","oral, 200 mg once daily, single dose, median",1.42 h
C#C[C@]1(COP(=O)(O)O)O[C@@H](n2cnc3c(N)nc(F)nc32)C[C@@H]1O,,"human, fed, PBMC","oral, 30 mg single",6 h
COc1ccc([C@@H](O)c2cc(-c3ncnc4cc(N5CCOCC5)ccc34)c(F)cc2Cl)nn1,plasma pharmacokinetics,human,"oral, 150 mg capecitabine, single dose, median",2.33 h
CN(C)C(=O)c1cc2cnc(Nc3ccc(N4CCNCC4)cn3)nc2n1C1CCCC1,,"human, severe renal impairment, plasma","oral, 400 mg, median",2 h
CCn1cc(C(=O)N2CCOCC2)c(=O)c2cc(NC3Cc4ccccc4C3)cnc21,,"human, fed","oral suspension, 1200 mg single dose, median",8 h
N#Cc1cc(NC(=O)[C@H]2c3ccccc3C(=O)N(CC(F)(F)F)[C@@H]2c2cccnc2)ccc1F,,"human, plasma","oral, 600 mg, median",1.5 h
Cc1cc(-c2nccc3c2ccn3CC(=O)Nc2ccc(-c3cnccn3)cn2)ccn1,,"human, plasma","oral, 20 mg once daily, day 1, median",0.98 h
C[C@@H](N)c1cc(Cl)ccc1Cn1c(=S)[nH]c(=O)c2[nH]ccc21,,"human, both sexes, severe renal impairment, plasma","oral, 2.5 mg single dose, median",1.5 h
Cc1cc(-c2nnc(N)nc2-c2ccc(F)cc2)cc(Cl)n1,,"human patients, plasma","oral, 75 mg nanosuspension, single dose, median",0.5 h
C[C@@H](c1ccc2nccn2c1)n1nnc2ncc(-c3cnn(C)c3)nc21,,"human, plasma","oral, cycle 1 day 1, single dose, all, median",2.23 h
Cn1cncc1[C@@](N)(c1ccc(Cl)cc1)c1ccc2c(c1)c(-c1cccc(Cl)c1)cc(=O)n2C,,"human, plasma","oral, 300 mg/m^2, median, initial cohort, first cycle dose",5 h
C=CC(=O)NC1CCN(c2ncc3ncnc(Nc4ccc(Oc5ccc6c(c5)ncn6C)c(C)c4)c3n2)CC1,,human male,"oral, 60 mg single dose, median",2 h
CCOc1c([C@H](C)n2nc(C)c3c(N)ncnc32)cc(Cl)c(F)c1[C@@H]1CNC(=O)C1,,"human, fasted, plasma","oral, dose not given, median",~1 h
COc1ncc(-c2nc3c(n2C(C)C)[C@H](c2ccc(Cl)cc2)N(c2cc(Cl)cn(C)c2=O)C3=O)c(OC)n1,"LC-MS/MS, noncompartmental","human, plasma","oral, 200 mg, C2D1, high-dose, median",2.1 h
C[C@H]1[C@H](OC(=O)CCC(=O)O)O[C@@H]2O[C@@]3(C)CC[C@H]4[C@H](C)CC[C@@H]1[C@@]24OO3,,"human, both sexes, plasma","oral, dose not given, non-fixed combination",0.54 h
COc1nnc2ccc(N3CCC(c4ccc(OCCN5CCN(C)C(=O)[C@H]5C)cc4)CC3)nn12,,"human, plasma","oral, dose not given, single dose, monotherapy, across dose cohorts",0.5 to 3 h
Cc1cn(C(=O)c2c(-c3c(Cl)cc(Cl)cc3Cl)noc2C(C)(C)F)c2cccc(/C=C/C(=O)O)c12,,human patients,"700 mg bid, cycle 8 day 1",3.98 h
CO[C@@H]1[C@H](OC(=O)N2CC(CCN3CCOCC3)C2)CC[C@]2(CO2)[C@H]1[C@@]1(C)O[C@@H]1CC=C(C)C,,"humans, plasma","subcutaneous, 0.6 mg twice weekly, first dose",0.27 h
CC(C)NC(=O)COc1cccc(-c2nc(Nc3ccc4[nH]ncc4c3)c3ccccc3n2)c1,,"human male, plasma","oral, 200 mg, day 5, fed, alone, median",2 h
COC(=O)N[C@@H](C)CNc1nccc(-c2cn(C(C)C)nc2-c2cc(Cl)cc(NS(C)(=O)=O)c2F)n1,,"human patients, plasma","oral, 450 mg twice daily, day 14, steady state, median, together with: binimetinib 45 mg once daily",1.94 h
CC1(COc2ccc3c(c2)ncn3-c2ccc3cccc(N4CCC(N)CC4)c3n2)COC1,,"human patients, recurrent/progressive HGG or DIPG, serum","oral, 130 mg/m^2, day 28, median",3 h
CC(=O)O.NC(=O)c1cnc(N[C@@H]2CCCC[C@@H]2N)nc1Nc1cccc(-n2nccn2)c1,,"human, plasma","oral, 110 mg once daily",3.03 h
CN(CC#N)C(=O)C[C@H](Nc1nc2ccccc2[nH]1)c1cccc(C(F)(F)F)c1,,human,"intravenous infusion, 2 mg/kg, 10 mg/mL formulation",0.51 ± 0.04 h
Cn1cncc1-c1c(F)cncc1NC(=O)c1c(N)nn2cc(F)cnc12,,"human patients, plasma","oral, 90 mg",1.7 h
COc1cc(-c2cnc3cc(OCCN4CCOCC4)ccn23)cc2c1C(=O)N(CC(F)(F)F)CC2,LC-MS,"human, plasma","oral, 350 mg, day 5, together with: sulfasalazine 1000 mg",0.5 h
Cc1ncnc2c1ccn2[C@@H]1C[C@H](Oc2cc(C(F)F)c(F)c3c2CNCC3)[C@@H](O)[C@H]1O,,human,"oral, 2 mg twice daily",2.2 h and 1 h
C#C[C@]1(CO)O[C@@H](n2cnc3c(N)nc(F)nc32)C[C@@H]1O,,"human, plasma","oral, 15 mg, single dose, median",0.5 h
CNC(=O)c1cc(Oc2ccc(NC(=O)Nc3ccc(Cl)c(C(F)(F)F)c3)cc2)ccn1,,"human, plasma","oral, 400 mg daily, median, dose level -1, together with: carboplatin AUC 3, gemcitabine 650 mg/m2",2.6 h
O=C(c1cc(Cc2n[nH]c(=O)c3ccccc23)ccc1F)N1CCN(C(=O)C2CC2)CC1,,"human, female, plasma","oral, 200 mg",2 h
CNC(=O)c1ccc(-c2cnc3ncc(Cc4ccc5ncccc5c4)n3n2)cc1F,,human mild hepatic impairment NCI,"oral, 200 mg single dose, median",1.5 h
CCN1CCN(Cc2ccc(Nc3ncc(F)c(-c4cc(F)c5nc6n(c5c4)[C@H](C)CCC6)n3)nc2)CC1,,"human, plasma","200 mg multiple dosing, median",5.95 h
CCn1c(=O)c(-c2cc(NC(=O)Nc3ccccc3)c(F)cc2Br)cc2cnc(NC)cc21,,"human, plasma","oral, 150 mg once daily, steady state",6 h
CN(C)C(=O)c1cc2cnc(Nc3ccc(N4CCNCC4)cn3)nc2n1C1CCCC1,LC-MS/MS,"human, all patients, plasma",oral,4 h
Cc1nc(-c2ccc(OCC(C)C)c(C#N)c2)sc1C(=O)O,,"human, plasma","oral, 20 mg once daily, together with: verinurad 2.5 mg",3 h
C[C@H](NC(=O)/C(C#N)=C/c1cccc(Br)n1)c1ccccc1,LC-MS/MS,"human, plasma","oral, 4 mg/kg, cycle 1 day 8",0.5 h
[H]/N=C(/N)c1ccc(NCc2nc3cc(C(=O)N(CCC(=O)O)c4ccccn4)ccc3n2C)cc1,,"healthy human subjects, plasma","oral, 150 mg, dabigatran etexilate alone, median",2 h
CCS(=O)(=O)Nc1ccc(Oc2ccc(F)cc2F)c(-c2cn(C)c(=O)c3[nH]ccc23)c1,,"human, plasma","oral, 1.5 mg, cycle 1 day 8, median",2 h
Cc1noc(C)c1-c1cc(C(O)(c2ccccn2)c2ccccn2)c2nc(C3CC3)[nH]c2c1,,"human, fasted, plasma","oral, 6 mg, cycle 1 day 15, together with: enzalutamide once daily",0.5 h
C#Cc1cccc(Nc2ncnc3cc(OCCOC)c(OCCOC)cc23)c1,,"human, plasma","oral, 100 mg daily, day 8, median, together with: docetaxel",3 h
COc1ccc2c3c1O[C@H]1C[C@@H](OC(=O)c4ccccc4)C=C[C@@]31CCN(C)C2,,"human, plasma","intranasal, 5.5 mg single dose",0.25 h
N#CCC1CCN(c2nc(Nc3ccc(N4CCC(O)CC4)cc3)c3c(=O)[nH]ncc3n2)CC1,LC-MS/MS,"human, plasma","oral, 40 mg once daily, day 1, median",2 h
CC(C)(C(=O)NC1C2CC3CC1CC(C(N)=O)(C3)C2)N1CCN(c2ccc(C(F)(F)F)cn2)CC1 (stereo not drawn),,"human, plasma","50 mg once daily, 5 days, median",2.6 h
Cc1nc2ccc(F)cc2n1-c1nc(N)c(F)c(Nc2ccc(C(F)(F)F)cc2)n1,,"human patients, plasma",200 to 400 mg,~4 h
